Published values collected from several papers.
Each line is one published result; not all experiments were run side by side. Several values in a cell are separate wells, animals, samples, runs or records. Numbers after ± are the reported error.

Compound | cell line | test | setting | scale | quantity | result
CN1CCCNC(=O)c2cccc(c2)C(=O)NCCCN(C)CCCNc2cccc3c2C(=O)c2cccc(c2C3=O)NCCC1 | SAS | RNA-Seq, item: MBOAT2 mRNA | 1 µM, 6 h | reference: untreated cells | log2 fold change | -1.01
Fc1cncc(-c2ccc3[nH]c4ncnc(N[C@H]5CC[C@H](N6CCOCC6)CC5)c4c3c2)c1 | TMD8 | immunoblot | 10 µM, 24 h |  | IRAK4 phosphorylation | inhibited
CC(C)c1ccc(N(C)c2ccc3c(c2)OCC[C@H]3CNc2cnccc2C(=O)O)cc1 | SAOS-2 | cell growth or viability, ATP luminescence | 7 days |  | IC50 | ≥ 10000 nM
CCOc1cncc(-c2ccc(NC(=O)C3(c4ccnc(NS(=O)(=O)C5CC5)n4)CCOCC3)nc2)n1 | JURL-MK2 | cell proliferation, CellTiter-Glo | 72 h, myeloid haematological cancer |  | IC50 | 649 nM
CCn1ccc(C2CCCN2S(=O)(=O)c2cc(C)c(C)cc2C)n1 (centres unmarked) | human monocytes | phagocytosis of anti-D RBCs | 5 µM, lab-synthesized sample |  | inhibition | < 0.5%
CN(C)CCN1CCN(c2ccc3nc(-c4ccc5nc(-c6ccc(C(F)(F)F)cc6)[nH]c5c4)[nH]c3c2)CC1 | Malme-3M | SRB | 10 µM, 48 h |  | growth percent | -4.2%
CO[C@@H]1[C@@H](OC(N)=O)[C@@H](O)[C@H](Oc2ccc3c(O)c(NC(=O)c4ccc(O)c(CC=C(C)C)c4)c(=O)oc3c2C)OC1(C)C | HCT-116 BRCA2 wild-type |  | 50 µM, replicate B | reference: untreated | colony survival | 88.6%
O=C(C[Se]C(=O)c1ccc2ccccc2n1)Nc1cccc(C(F)(F)F)c1 | NCI60 colon subpanel | NCI60 five-dose screen |  |  | GI50 | 4760 nM
C=CC(=O)N1[C@H](c2ccc3c(c2)OCO3)c2[nH]c3ccccc3c2C[C@@H]1C(=O)NC | rat DRG neurons |  | 0.01372 µM, 48 h, with: vincristine 40 nM |  | mean neuron degeneration | 76.8%
COc1cccc(OC)c1-c1cc(C(=O)NC2(C(=O)O)C3CC4CC(C3)CC2C4)nn1-c1ccc(C(=O)N(C)CCCN(C)CCCN(C)C(=O)[C@H](CCCCNC(=O)[C@H](CC(C)C)NC(=O)C2OC2C(=O)O)NC(=O)CN2CCN(CC(=O)[O-])CCN(CC(=O)[O-])CCN(CC(=O)[O-])CC2)cc1C(C)C.[177Lu+3] (mixture of isomers) | HT-29 |  | concentration not given, 30 min | reference: added activity | surface-bound fraction | 3.91 ± 0.21%
NC(Cc1ccccc1)C(=O)N1CC(=Cc2ccc(Cl)c(Cl)c2)C(=O)C(=Cc2ccc(Cl)c(Cl)c2)C1 (centres unmarked) | BRD4-HiBiT cells | BRD4 degradation rescue, inhibitor | 2 h, with: dBET6 500 nM |  | EC50 | 1180 nM
O=C(C[Se]C(=O)c1ccccc1Nc1cccc(C(F)(F)F)c1)Nc1cccc(C(F)(F)F)c1 | NCI60 colon subpanel | NCI60 five-dose screen |  |  | GI50 | 2490 nM
CC(=O)N[C@@H](CC(=O)O)C(=O)N[C@@H](CCC(=O)O)C(=O)N[C@H](C(=O)N[C@@H](CC(=O)O)C(=O)COC(=O)c1c(C)cccc1C)C(C)C | THP-1 cells expressing FKBP-caspase-11 | pyroptosis, inhibitor | concentration not given, with: B/B dimerizer |  | LDH release | 22.8% and 25% and 17.4%
O=C(O)C1OC(Oc2ccc3c(=O)c(O)c(-c4ccccc4)oc3c2)C(O)C(O)C1O (centres unmarked) | MDCKII-UGT1A1/MRP2 cells | glucuronide efflux, substrate |  |  | Jmax | 25.6 ± 1.01 pmol/mg/min
CCn1nc(Cl)c2c1-c1cnc(N)c(c1)O[C@H](C)c1cc(F)ccc1-c1nn(C)cc1C2 | NCI-H3122 (EML4-ALK variant 1) | cell viability |  |  | IC50 | 2.25 nM
CC(C)n1nc(C(F)F)cc1C(=O)Nc1ccc([C@H]2[C@@H](O)CCCc3cncn32)c(-c2ccccc2)c1 | BRD4-HiBiT cells | BRD4 degradation rescue, inhibitor | 4 h, 50% degradation rescued, with: dBET6 500 nM |  | EC50 | 173 nM
Cn1ncc2cc(-c3cncc(Cl)c3N3CCC4(CCNC4=O)CC3)ccc21 | LS174T | gene expression, microarray, item: DRD2 mRNA | concentration not given, 24 h | reference: untreated cells | log2 fold change | 4.07
Cc1ccc(-n2cc(CSc3nc4ccccc4n3Cc3cn(-c4ccc(C)cc4)nn3)nn2)cc1 | Caco-2 | MTT | 62.5 ppm |  | cytotoxicity | 83.9%
CCCCCCc1cccc(C(O)CC(CO)NC(=O)CCCCCCCCCCNC(C)=O)c1 (centres unmarked) | HeLa | CERT activity, HPLC-MS/MS lipidomics, item: sphingomyelin 24 | 1 µM, 24 h, not cell-number normalised |  | sphingomyelin level | 42300 pmol/sample and 50300 pmol/sample and 48800 pmol/sample

Compound | cell line | test | setting | scale | quantity | result
COc1ccccc1-c1ccncc1C(=O)Nc1nnc(OCc2ccc(Cl)cc2)s1 | DLD-1 BRCA2-/- |  | 2 µM, mean of replicates |  | colony count | 16.5 and 25 and 15
COC1=C2CC(C)CC(OC)C(O)C(C)C=C(C)C(OC(N)=O)C(OC)C=CC=C(C)C(=O)NC(=CC1=O)C2=O (centres unmarked) | Rh30 | ChIP-seq, item: H3K36me3 peak | concentration not given, promoter-TSS chr11:62617800-62624399 | reference: untreated control | log fold change | -0.702
COC(=O)c1cc(NC2=NC(=O)C(=Cc3ccc(C)cc3)S2)ccc1OC(C)=O | MCF7 | GC-MS, item: L-Methionine | 1 µM | reference: DMSO | metabolite level | -0.52 fold change
Cc1ncsc1-c1ccc(C(C)NC(=O)C2CC(O)CN2C(=O)C(NC(=O)CCCCCCCCCCN2CCCC(Nc3ncc(Cl)c(Nc4ccccc4S(=O)(=O)C(C)C)n3)C2)C(C)(C)C)cc1 (centres unmarked) | 22Rv1 | RNA-seq, item: TMEM125 mRNA | concentration not given | reference: DMSO | log2 fold change | -1.04
CN(C)c1ccc(-n2cc(COC(=O)[C@]3(C)C=C(C(=O)OC(C)(C)C)C(=O)CC3)nn2)cc1 | HeLa | quantitative western blot | concentration not given, 10 (unit not given), with: EGF |  | pERK/ERK ratio | 0.214
CNC(=O)CCN(Cc1ccc(C(F)F)cc1)C(=O)c1cc2c(OC)ccc(-c3ccc(=O)n(C)c3)c2s1 | murine AML cells | BRD4 chromatin occupancy, ChIP-seq, item: BRD4 at Ift57 locus | concentration not given, chr16:49768114-49777591 | reference: DMSO, higher = more occupancy | BRD4 ChIP-seq tag count | 62.9 a.u.
CNS(=O)(=O)Nc1nccc(Cc2c(C)c3ccc(Oc4ncccc4F)cc3oc2=O)c1F | T24 | cell viability | 7 days |  | IC50 | > 1000 nM
C/C1=C\CC/C(C)=C/CC(C)(C)/C=C/C1 | mouse DRG neurons | inhibitor, whole-cell patch clamp | 100 µM, 5 min, at -10 mV, cultured 0.08333 h |  | remaining sodium current | 90 ± 5%
O=C(Nc1nnc2c1c(-c1ccc(Cl)cc1)nc1sc(=Cc3ccco3)c(=O)n12)c1ccccc1 (mixture of isomers) | SN12C | SRB | 10 µM, NCI60 single-dose screen | reference: untreated | cell growth | 41.1%
O=C(NCc1cc(F)cc(F)c1)[C@@]1(O)CCN(c2ccc3[nH]ccc3c2)C1=O | OVXF1023 ovarian cancer cells | colony formation, soft agar clonogenic | concentration not given |  | efficacy | 62%
Cc1c(Cl)cccc1Nc1ccccc1C(=O)[Se]CC(=O)Nc1cccc(C(F)(F)F)c1 | NCI60 colon subpanel | NCI60 five-dose screen |  |  | mean TGI | 6860 nM
C#CCCCC(F)/C=C/C(=O)NC1(c2ccc(-c3nc4ccn5c(=O)[nH]nc5c4cc3-c3ccccc3)cc2)CCC1 (centres unmarked) | MDA-MB-468 | flow cytometry, PI staining | EC60 concentration, 72 h, DMSO 39.2 |  | cells in G0/G1 phase | 46.4%
O=S1(=O)CC2CCCCC2CS1 (centres unmarked) | MDA-MB-468 | MTT | 6.25 µM, 72 h |  | viability | 5.34%
CCN(CC)CC(=O)Nc1cccc(-n2cc(-c3ccc4ccc(-c5cn(-c6cccc(NC(=O)CN(CC)CC)c6)nn5)cc4c3)nn2)c1 | RCC4 | PCR angiogenesis array, item: TYMP | 5 x IC50, 6 h, normoxia | reference: untreated | fold regulation | -1.24 fold
O=C(C[Se]C(=O)c1cc2ccccc2o1)Nc1cccc(C(F)(F)F)c1 | NCI60 colon subpanel | cell growth | 10 µM, 48 h, one-dose |  | mean growth percent | -29.3%
COc1cc(N2CCN(C(=O)C3CCCN3)CC2)ccc1Nc1ncc(Cl)c(Nc2ccccc2P(C)(C)=O)n1 (centres unmarked) | NCI-H3122 | annexin V/PI flow cytometry | 500 nM, 24 h |  | late apoptotic cells | 3.16% and 3.74% and 3.43%
CCN(CC)CCNC(=S)Nc1ccc2nc(N3CCN(CC)CC3)cc(C)c2c1 | U2OS HDR-GFP reporter | homology-directed repair, flow cytometry | 15 µM |  | GFP-positive cells | 6.2%
CSC(=S)N/N=C(\C)c1ccc(Nc2nnc(-c3ccc(Cl)cc3)c3ccccc23)cc1 | MCF7 | cell growth or viability, MTT | 0.625 µM, 24 h |  | viability | 12.8%
CCN(C(=O)c1cc(F)ccc1Oc1nncnc1N1CCC2(C1)CN([C@H](CCCN(C)CCOC)C(C)C)C2)C(C)C | SAOS-2 | cell growth or viability | 7 days |  | GI50 | > 10000 nM
